Published values collected from several papers.
Protocols differ between the studies behind these lines. Values joined by “and” are separate records of one study, mostly repeats; a detail may differ.
PFF0160c: Dihydroorotate dehydrogenase (quinone), mitochondrial (PFF0160c, Plasmodium falciparum, UniProt Q08210)
Sialidase-3: Sialidase-3 (Homo sapiens, UniProt Q9UQ49)
Sequence of UniProt Q9UQ49 (whole entry, looked up): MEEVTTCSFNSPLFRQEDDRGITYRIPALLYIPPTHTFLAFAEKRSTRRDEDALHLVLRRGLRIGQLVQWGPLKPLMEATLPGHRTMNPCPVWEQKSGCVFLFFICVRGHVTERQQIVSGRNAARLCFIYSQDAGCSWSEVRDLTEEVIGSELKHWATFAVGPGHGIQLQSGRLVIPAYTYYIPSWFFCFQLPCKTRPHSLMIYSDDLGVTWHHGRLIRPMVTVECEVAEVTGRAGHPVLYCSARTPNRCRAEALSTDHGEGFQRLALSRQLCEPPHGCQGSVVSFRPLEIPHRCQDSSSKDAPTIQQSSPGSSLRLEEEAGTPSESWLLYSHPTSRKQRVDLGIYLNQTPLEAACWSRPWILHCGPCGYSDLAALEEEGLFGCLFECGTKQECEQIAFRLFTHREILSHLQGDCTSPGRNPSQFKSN
PFF0160c E182D: Dihydroorotate dehydrogenase (quinone), mitochondrial (PFF0160c, Plasmodium falciparum, UniProt Q08210, E182D)
Sialidase-4: Sialidase-4 (Homo sapiens, UniProt Q8WWR8)
Sequence of UniProt Q8WWR8 (whole entry, looked up): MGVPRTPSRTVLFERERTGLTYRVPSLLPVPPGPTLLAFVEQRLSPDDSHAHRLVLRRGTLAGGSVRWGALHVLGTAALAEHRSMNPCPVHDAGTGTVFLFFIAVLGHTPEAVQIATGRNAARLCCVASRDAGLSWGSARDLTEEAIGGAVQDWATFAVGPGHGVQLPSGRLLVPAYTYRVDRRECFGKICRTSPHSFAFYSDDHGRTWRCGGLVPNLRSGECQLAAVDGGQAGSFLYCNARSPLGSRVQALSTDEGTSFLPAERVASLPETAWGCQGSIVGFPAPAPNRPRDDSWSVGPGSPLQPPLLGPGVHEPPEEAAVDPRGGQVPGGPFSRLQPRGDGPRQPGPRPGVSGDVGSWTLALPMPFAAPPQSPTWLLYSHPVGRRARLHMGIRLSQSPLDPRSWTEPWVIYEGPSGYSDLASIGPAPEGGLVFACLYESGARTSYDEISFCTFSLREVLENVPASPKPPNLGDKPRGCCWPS
HLA class I histocompatibility antigen, B alpha chain: HLA class I histocompatibility antigen, B alpha chain (Homo sapiens, UniProt P01889)
Sequence of UniProt P81908 (whole entry, looked up): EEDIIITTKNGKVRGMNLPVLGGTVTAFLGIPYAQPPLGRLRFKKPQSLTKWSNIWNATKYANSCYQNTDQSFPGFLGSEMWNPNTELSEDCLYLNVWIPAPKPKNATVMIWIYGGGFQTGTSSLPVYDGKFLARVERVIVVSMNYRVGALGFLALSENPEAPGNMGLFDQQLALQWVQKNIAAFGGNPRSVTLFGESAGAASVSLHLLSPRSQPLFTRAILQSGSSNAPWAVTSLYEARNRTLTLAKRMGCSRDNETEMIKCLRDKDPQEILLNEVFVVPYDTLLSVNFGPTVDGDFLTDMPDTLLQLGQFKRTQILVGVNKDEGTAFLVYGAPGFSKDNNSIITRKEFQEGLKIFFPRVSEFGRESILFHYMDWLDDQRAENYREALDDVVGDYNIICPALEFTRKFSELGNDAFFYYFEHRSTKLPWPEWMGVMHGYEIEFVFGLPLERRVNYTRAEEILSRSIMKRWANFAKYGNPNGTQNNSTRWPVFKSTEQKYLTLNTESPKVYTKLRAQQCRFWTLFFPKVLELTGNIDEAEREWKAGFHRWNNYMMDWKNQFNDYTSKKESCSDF
Sequence of UniProt Q00975 (whole entry, looked up): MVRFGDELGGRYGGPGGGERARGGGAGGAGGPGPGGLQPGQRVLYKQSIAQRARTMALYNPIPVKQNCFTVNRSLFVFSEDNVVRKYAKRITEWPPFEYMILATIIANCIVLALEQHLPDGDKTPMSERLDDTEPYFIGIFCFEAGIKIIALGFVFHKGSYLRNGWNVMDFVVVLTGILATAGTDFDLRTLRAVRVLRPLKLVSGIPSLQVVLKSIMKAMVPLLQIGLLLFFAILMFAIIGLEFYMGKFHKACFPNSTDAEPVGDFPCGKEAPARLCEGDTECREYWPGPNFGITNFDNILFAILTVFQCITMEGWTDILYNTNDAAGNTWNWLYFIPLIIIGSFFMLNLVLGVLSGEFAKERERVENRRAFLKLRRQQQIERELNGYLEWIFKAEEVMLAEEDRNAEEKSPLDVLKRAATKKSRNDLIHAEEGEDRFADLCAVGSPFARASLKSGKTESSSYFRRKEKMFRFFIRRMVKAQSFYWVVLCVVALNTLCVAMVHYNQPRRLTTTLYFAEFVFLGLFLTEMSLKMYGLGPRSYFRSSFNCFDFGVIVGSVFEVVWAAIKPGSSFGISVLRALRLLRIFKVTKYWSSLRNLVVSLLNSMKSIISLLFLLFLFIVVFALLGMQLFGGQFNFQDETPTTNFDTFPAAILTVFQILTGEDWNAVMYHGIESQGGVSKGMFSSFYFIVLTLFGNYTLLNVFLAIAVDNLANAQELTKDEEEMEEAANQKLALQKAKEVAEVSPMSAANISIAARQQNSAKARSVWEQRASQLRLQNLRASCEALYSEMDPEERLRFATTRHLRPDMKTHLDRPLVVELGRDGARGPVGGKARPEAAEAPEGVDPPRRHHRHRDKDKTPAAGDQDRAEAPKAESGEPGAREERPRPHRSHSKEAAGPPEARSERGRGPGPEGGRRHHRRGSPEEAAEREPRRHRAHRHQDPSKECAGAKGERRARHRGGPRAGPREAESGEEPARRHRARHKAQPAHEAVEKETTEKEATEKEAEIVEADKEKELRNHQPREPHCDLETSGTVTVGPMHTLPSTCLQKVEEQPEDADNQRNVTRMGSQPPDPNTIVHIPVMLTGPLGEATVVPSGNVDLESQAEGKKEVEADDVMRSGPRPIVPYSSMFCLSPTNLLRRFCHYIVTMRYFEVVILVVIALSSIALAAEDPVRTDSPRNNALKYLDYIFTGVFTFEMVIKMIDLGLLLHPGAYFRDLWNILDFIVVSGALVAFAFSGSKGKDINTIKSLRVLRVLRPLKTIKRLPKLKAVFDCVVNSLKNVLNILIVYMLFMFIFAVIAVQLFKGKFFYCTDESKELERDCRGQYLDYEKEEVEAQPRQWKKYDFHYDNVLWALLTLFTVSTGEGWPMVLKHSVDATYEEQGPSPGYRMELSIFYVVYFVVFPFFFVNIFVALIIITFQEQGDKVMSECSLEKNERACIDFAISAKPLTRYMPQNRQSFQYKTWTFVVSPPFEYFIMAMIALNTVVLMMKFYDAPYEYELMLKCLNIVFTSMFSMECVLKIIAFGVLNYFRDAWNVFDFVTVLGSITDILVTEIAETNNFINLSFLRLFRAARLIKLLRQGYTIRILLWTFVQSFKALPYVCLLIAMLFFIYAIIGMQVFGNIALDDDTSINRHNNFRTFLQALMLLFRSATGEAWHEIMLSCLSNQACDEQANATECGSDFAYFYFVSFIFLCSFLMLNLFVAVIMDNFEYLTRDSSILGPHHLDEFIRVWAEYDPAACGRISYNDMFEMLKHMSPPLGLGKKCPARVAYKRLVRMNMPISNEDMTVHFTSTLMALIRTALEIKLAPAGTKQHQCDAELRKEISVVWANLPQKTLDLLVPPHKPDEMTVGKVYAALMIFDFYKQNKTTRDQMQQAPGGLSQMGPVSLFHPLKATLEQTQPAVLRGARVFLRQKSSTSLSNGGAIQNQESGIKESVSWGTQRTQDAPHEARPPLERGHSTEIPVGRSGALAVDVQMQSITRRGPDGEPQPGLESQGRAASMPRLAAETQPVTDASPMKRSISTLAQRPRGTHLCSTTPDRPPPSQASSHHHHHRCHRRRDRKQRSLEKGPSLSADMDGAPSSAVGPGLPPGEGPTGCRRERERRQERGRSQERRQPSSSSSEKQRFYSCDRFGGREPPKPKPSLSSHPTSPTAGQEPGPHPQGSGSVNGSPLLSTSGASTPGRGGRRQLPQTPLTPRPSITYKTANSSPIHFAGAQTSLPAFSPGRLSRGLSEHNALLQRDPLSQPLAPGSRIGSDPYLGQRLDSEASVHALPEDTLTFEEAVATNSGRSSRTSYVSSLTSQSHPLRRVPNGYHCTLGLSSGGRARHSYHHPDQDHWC
Sequence of UniProt Q7KZI7 (whole entry, looked up): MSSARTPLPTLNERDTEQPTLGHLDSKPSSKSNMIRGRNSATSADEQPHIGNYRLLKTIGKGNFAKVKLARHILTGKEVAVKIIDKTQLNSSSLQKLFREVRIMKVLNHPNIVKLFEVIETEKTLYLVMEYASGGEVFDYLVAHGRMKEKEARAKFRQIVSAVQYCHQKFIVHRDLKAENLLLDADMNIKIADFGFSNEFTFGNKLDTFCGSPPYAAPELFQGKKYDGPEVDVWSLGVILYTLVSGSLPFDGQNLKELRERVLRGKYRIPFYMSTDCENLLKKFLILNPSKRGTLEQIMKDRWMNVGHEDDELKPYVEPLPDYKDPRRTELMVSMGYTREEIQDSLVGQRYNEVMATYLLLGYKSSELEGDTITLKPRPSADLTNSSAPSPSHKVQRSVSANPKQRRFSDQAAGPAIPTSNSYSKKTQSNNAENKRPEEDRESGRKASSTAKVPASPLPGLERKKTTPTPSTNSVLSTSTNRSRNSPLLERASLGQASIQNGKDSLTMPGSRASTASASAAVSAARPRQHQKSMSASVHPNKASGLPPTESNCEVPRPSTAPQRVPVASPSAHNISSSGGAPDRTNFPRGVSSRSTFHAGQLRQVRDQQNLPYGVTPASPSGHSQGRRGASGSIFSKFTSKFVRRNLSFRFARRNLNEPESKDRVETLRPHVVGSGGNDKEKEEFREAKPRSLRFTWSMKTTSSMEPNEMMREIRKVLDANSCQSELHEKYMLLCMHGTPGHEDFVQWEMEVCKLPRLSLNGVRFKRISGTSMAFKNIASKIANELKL
Sequence of UniProt P41143 (whole entry, looked up): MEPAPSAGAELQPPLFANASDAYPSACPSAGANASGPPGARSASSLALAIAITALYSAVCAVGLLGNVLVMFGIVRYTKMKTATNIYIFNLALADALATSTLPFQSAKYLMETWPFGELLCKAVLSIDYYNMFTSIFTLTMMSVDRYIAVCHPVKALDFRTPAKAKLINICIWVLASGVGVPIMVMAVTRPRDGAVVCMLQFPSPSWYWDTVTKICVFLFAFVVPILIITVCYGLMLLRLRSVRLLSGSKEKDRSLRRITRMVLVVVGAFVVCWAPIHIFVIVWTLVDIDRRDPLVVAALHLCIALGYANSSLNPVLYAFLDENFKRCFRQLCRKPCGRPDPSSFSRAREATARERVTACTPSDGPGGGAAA

O=c1c(O)c(-c2ccc(O[C@@H]3O[C@H](CO)[C@@H](O)[C@H](O)[C@H]3O)c(O)c2)oc2cc(O)cc(O)c12 — IC50 (Cholinesterase (BCHE, Equus caballus, UniProt P81908); enzyme activity, inhibitor): 0.00788 µM and 0.00444 µM
c1ccc2[nH]c(Nc3ccc(Nc4nc5ccccc5[nH]4)cc3)nc2c1 — IC50 (PFF0160c; enzyme activity, inhibitor, absorbance): > 10 µM
CCn1ccc2c([C@](C)(O)c3cnc(C(F)(F)F)c(Cl)c3)n(C)nc2c1=O — IC50 (PFF0160c; enzyme activity, inhibitor): 0.0501 µM
COC(=O)c1cc(-c2cccc(NC(=O)Nc3ccc(OC)cc3)c2)on1 — MIC (Mycobacteroides chelonae; microbial growth, broth dilution; ATCC35752; 48 h): > 64 µg/mL
CC(C)(C)c1cn([C@H]2[C@H]([C@H](O)[C@H](O)CO)OC(C(=O)O)=C[C@@H]2O)nn1 — IC50 (Sialidase-3; enzyme activity, inhibitor): 190 µM
CC(=O)c1c(C)c2cnc(Nc3ccc(C4CCN(CCS(C)(=O)=O)CC4)cn3)nc2n(C2CCCC2)c1=O — IC50 (Cytochrome P450 2D6 (CYP2D6, Homo sapiens, UniProt P10635); enzyme activity, inhibitor; human, liver microsomes): > 10 µM
CCOC(=O)c1nn(C)c(Cc2ccc(C(F)(F)F)nc2)c1C — IC50 (PFF0160c; enzyme activity, inhibitor): 0.398 µM
CC(C)(C)CN[C@H]1[C@H]([C@H](O)[C@H](O)CO)OC(C(=O)O)=C[C@@H]1O — IC50 (Sialidase-3; enzyme activity, inhibitor): > 500 µM
COCC(C)n1c(SCC(=O)Nc2cc(C(F)(F)F)ccc2Cl)nc2ccccc2c1=O (stereo not shown) — IC50 (PFF0160c E182D; enzyme activity, inhibitor, absorbance): > 10 µM
Cn1nccc1[C@]1(CNC(=O)c2ccc(F)c(F)c2-c2ccc(C(F)(F)F)cc2)NC(=O)NC1=O — IC50 (CAPN1 (Homo sapiens, UniProt P07384); enzyme activity, inhibitor): > 100 µM
COC(=O)c1cc(-c2cccc(NC(=S)Nc3ccccc3)c2)on1 — MIC (Klebsiella pneumoniae; microbial growth, broth dilution; BAA1705): > 64 µg/mL
CCn1cc(C2CC2)c2c(Cc3ccc(C(F)(F)F)c(C#N)c3)n(C)nc2c1=O — IC50 (PFF0160c; enzyme activity, inhibitor): 0.0158 µM
CCCCCC(=O)N[C@H]1[C@H]([C@H](O)[C@H](O)CO)OC(C(=O)O)=C[C@@H]1O — IC50 (Sialidase-4; enzyme activity, inhibitor): > 500 µM
Cn1c(=O)cnc2ccc(F)c(CCNC[C@H]3CN(c4cnc5c(n4)NC(=O)CO5)C(=O)O3)c21 — IC50 (KCNH2 (Homo sapiens, UniProt Q12809); ion current, inhibitor, patch clamp; 2 min, pH 7.4): 62 µM
O=C(O[C@@H]1Cc2c(O)cc(O)cc2O[C@@H]1c1cc(=O)c(O)c2c(O)c(O)cc([C@H]3Oc4cc(O)cc(O)c4C[C@H]3O)c2c1)c1cc(O)c(O)c(O)c1 — IC50 (P4HB (Homo sapiens, UniProt P07237); enzyme activity, inhibitor, fluorescence): 3.4 µM
CCn1ncc2c([C@](O)(c3ccc(C(F)(F)F)c(Cl)c3)C3CC3)n(C)nc2c1=O — IC50 (PFF0160c; enzyme activity, inhibitor): 0.014 µM
CCCCCc1cn([C@H]2[C@H]([C@H](O)[C@H](O)CO)OC(C(=O)O)=C[C@@H]2O)nn1 — IC50 (Sialidase-4; enzyme activity, inhibitor): > 500 µM
CC(C)[C@H](NC(=O)[C@H](Cc1c[nH]cn1)NC(=O)[C@@H]1CCCN1C(=O)[C@H](Cc1ccccc1)NC(=O)[C@H](C)NC(=O)[C@@H](N)Cc1c[nH]cn1)C(=O)N[C@H](C(=O)N[C@H](C(=O)N[C@@H](Cc1ccccc1)C(=O)O)[C@@H](C)O)C(C)C — IC50 (HLA class I histocompatibility antigen, B alpha chain; cell-free assay): 0.979 µM
COc1ccccc1Cn1ccnc1SCC(=O)Nc1cc(C(F)(F)F)ccc1Cl — IC50 (PFF0160c; enzyme activity, inhibitor, absorbance): 0.0461 µM
Cn1nc2c(=O)n(C3CC3)ccc2c1Cc1ccc(C(F)(F)F)nc1 — IC50 (PFF0160c; enzyme activity, inhibitor): 1 µM
CN1CCc2[nH]c3ccccc3c2CC1 — IC50 (Voltage-dependent N-type calcium channel subunit alpha-1B (Homo sapiens, UniProt Q00975); ion current, inhibitor, patch clamp): 330 µM and > 180 µM
CC[C@H](C)[C@H](NC(=O)[C@H](CO)NC(=O)[C@H](Cc1ccc(O)cc1)NC(=O)[C@@H](NC(=O)[C@@H](N)CCCCN)C(C)C)C(=O)N1CCC[C@H]1C(=O)N[C@@H](Cc1c[nH]cn1)C(=O)N[C@@H](CCC(N)=O)C(=O)N[C@@H](CCSC)C(=O)O — IC50 (HLA class I histocompatibility antigen, B alpha chain; cell-free assay): 55.8 µM
CCN(C)C(=O)Oc1ccc(CCC(=O)N2CCC(Cc3ccccc3)CC2)cc1OC — IC50 (Cholinesterase (BCHE, Homo sapiens, UniProt P06276); enzyme activity, inhibitor, Ellman): 6.3 µM
Cc1c(C(=O)Nc2cc(Cl)cc(Cl)c2)cccc1[N+](=O)[O-] — IC50 (PFF0160c; enzyme activity, inhibitor, absorbance): 2.41 µM
Oc1cccc(CCN(CCc2ccccc2)CC2CCC2)c1 — IC50 (OPRD1 (Homo sapiens, UniProt P41143); β-arrestin recruitment, antagonist): 8.8 µM
[2H]c1c([2H])c([C@]2([2H])CCCN2C(=O)C(C)(C)Oc2ccc3cn[nH]c3c2)c([2H])c([2H])c1C([2H])([2H])[2H] — remaining binding (MARK2 (Homo sapiens, UniProt Q7KZI7); binding, competition with immobilised ligand; 1 µM): 83%
COc1ccc(-n2ccnc2SCC(=O)Nc2cc(Cl)ccc2OC)c(OC)c1 — IC50 (PFF0160c E182D; enzyme activity, inhibitor, absorbance): > 10 µM
CCN(CC)C(=O)Oc1ccc(/C=C/C(=O)NC2CCN(Cc3ccccc3)CC2)cc1OC — IC50 (Cholinesterase (BCHE, Equus caballus, UniProt P81908); enzyme activity, inhibitor, Ellman): 3.3 µM
CC(=O)c1c(Cc2cccc(C(F)(F)F)c2)c[nH]c1C — IC50 (PFF0160c E182D; enzyme activity, inhibitor, absorbance): 0.537 µM
COc1cc(CCC(=O)N2CCC(Cc3ccccc3)CC2)ccc1OC(=O)N(c1ccccc1)c1ccccc1 — IC50 (Cholinesterase (BCHE, Equus caballus, UniProt P81908); enzyme activity, inhibitor, Ellman): 29.3 µM
O=C(Nc1cccc(CN2CCN(C(=O)c3ccccc3)CC2)c1)c1cccs1 — IC50 (PFF0160c E182D; enzyme activity, inhibitor, absorbance): 6.97 µM
CSCC[C@H](NC(=O)[C@H](CO)NC(=O)[C@H](CC(C)C)NC(=O)[C@@H](NC(=O)[C@H](Cc1c[nH]cn1)NC(=O)[C@H](CCCCN)NC(=O)[C@H](Cc1ccccc1)NC(=O)[C@H](CCC(N)=O)NC(=O)[C@@H](N)CCCCN)[C@@H](C)O)C(=O)O — IC50 (HLA class I histocompatibility antigen, B alpha chain; cell-free assay): 68.8 µM
O=C(CN1CCN(C(=O)c2ccco2)CC1)Nc1ccccc1Br — IC50 (PFF0160c E182D; enzyme activity, inhibitor, absorbance): 1.59 µM
CC[C@@](N)(c1cnc(C(F)(F)F)c(Cl)c1)c1c2ccn(C3CC3)c(=O)c2nn1C — IC50 (PFF0160c; enzyme activity, inhibitor): 0.0398 µM

A few entries again:
CCn1cc(C2CC2)c2c(Cc3ccc(C(F)(F)F)c(C#N)c3)n(C)nc2c1=O — IC50 (PFF0160c; enzyme activity, inhibitor): 0.0158 µM
CCCCCC(=O)N[C@H]1[C@H]([C@H](O)[C@H](O)CO)OC(C(=O)O)=C[C@@H]1O — IC50 (Sialidase-4; enzyme activity, inhibitor): > 500 µM
